Results gathered from unrelated publications.
Every numbered part comes from another study and shows a few of its results, in no order. Changes are numbered by the printed parent chain.

Set 1
Target: CCNA2, cyclin fold, Cln2 fusion (human)
Technique: yeast growth competition, sequencing
Matrix: yeast
Notes: strong parent motif
Reference: not given
Reading: higher = stronger binding
Starting sequence: viral docking peptide; TSVRRALFTGGSD; partner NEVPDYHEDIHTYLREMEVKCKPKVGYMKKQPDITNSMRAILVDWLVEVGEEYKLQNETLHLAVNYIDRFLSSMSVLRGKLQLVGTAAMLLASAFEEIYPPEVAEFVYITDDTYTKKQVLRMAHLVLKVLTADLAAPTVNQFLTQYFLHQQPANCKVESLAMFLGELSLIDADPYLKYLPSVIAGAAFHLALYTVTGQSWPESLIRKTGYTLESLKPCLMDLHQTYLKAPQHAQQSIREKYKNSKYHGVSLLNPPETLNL
| Substitution | normalised enrichment score |
| --- | --- |
| TSVRRALFTKGSD [G10K] | 6.2 |
| TSVGRALFTGGSD [R4G] | 0.378 |
| TSVRRADFTGGSD [L7D] | -0.0231 |
| TSVRRALFTGYSD [G11Y] | 5.87 |
| TSVRRALFTGGPD [S12P] | 6.36 |
| TSVRRALFKGGSD [T9K] | 6.22 |
| TSVRRALFTGGED [S12E] | 6.02 |
| TSVRRALETGGSD [F8E] | -0.0546 |
| TSVRHALFTGGSD [R5H] | 1.26 |
| THVRRALFTGGSD [S2H] | 6.37 |
| TSVRRAGFTGGSD [L7G] | 0.42 |
| TSVRRALFTGGYD [S12Y] | 6.24 |
| TSSRRALFTGGSD [V3S] | 3.87 |

Set 2
Target: Interferon regulatory factor 5, full length, phosphomimetic (IRF5, Homo sapiens, UniProt Q13568-2, residues 1-514, K96S/S451D/S453D/S456D/S462D)
Technique: protein-binding microarray
Molecule type: double-stranded DNA, one strand shown
Matrix: in vitro
Concentration: 250 nM
Notes: 60-bp whole probe
Added: salmon DNA 0.4 mg/ml
Reference: random background probes
Reading: higher = stronger binding
Constant ends, left off below: GCCTAGCAC … GTCTTGATTCGCTTGACGCTGCTG
| Strand | log fluorescence [z-score] |
| --- | --- |
| TTAGGTTTACTTTTCCTTTAGTGCTAG | 1.15 |
| TCTTTTATTTTTTTTATTTAGTGCTAG | 1.57 |
| GACGATTTCAGTCTCGAGACGTGCTAG | 1.44 |
| GGCGGTATCGGGTATCGGGACGTGCTA | 3.26 |
| TTAGGTATCCTTATCCTTTAGTGCTAG | 0.267 |
| TTATGTCTGGGTATTTTTTCGTGCTAG | 0.692 |
| GCCGGACTGGGTATCGGGACGTGCTAG | 0.337 |
| TTAGGACTGGTTATCCTTTAGTGCTAG | -0.314 |

Set 3
Target: POU domain, class 5, transcription factor 1, POU domain (Pou5f1, Mus musculus, UniProt P20263, residues 131-289)
Sequence of UniProt P20263 (131-289, looked up): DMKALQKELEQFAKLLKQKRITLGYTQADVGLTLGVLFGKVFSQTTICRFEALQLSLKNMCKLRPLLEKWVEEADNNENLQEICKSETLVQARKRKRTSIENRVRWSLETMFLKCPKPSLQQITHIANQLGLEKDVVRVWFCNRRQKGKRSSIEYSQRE
Technique: Spec-seq
Molecule type: double-stranded DNA, one strand shown
Matrix: in vitro
Concentration: not given
Notes: whole probe, mean of replicates
Reference: not given
Reading: lower = stronger binding
Constant ends, left off below: GAGTCGTCTCGTCAGCAC … ATCCGTAGAGCACTCAGGTC
| Strand | relative binding energy [ln ratio] |
| --- | --- |
| ATAAGC | -0.42 |
| ATCATA | 0.0214 |
| CAACTA | 0.618 |
| ATTAAG | 0.102 |
| ATCCGA | -0.114 |
| GGGCTA | 0.768 |
| GGACTA | 0.472 |
| ATTCGC | -0.55 |

Set 4
Target: Sal-like protein 4, full length isoform A (SALL4, Homo sapiens, UniProt Q9UJQ4, residues 1-1053)
Sequence of UniProt Q9UJQ4 (whole entry, looked up): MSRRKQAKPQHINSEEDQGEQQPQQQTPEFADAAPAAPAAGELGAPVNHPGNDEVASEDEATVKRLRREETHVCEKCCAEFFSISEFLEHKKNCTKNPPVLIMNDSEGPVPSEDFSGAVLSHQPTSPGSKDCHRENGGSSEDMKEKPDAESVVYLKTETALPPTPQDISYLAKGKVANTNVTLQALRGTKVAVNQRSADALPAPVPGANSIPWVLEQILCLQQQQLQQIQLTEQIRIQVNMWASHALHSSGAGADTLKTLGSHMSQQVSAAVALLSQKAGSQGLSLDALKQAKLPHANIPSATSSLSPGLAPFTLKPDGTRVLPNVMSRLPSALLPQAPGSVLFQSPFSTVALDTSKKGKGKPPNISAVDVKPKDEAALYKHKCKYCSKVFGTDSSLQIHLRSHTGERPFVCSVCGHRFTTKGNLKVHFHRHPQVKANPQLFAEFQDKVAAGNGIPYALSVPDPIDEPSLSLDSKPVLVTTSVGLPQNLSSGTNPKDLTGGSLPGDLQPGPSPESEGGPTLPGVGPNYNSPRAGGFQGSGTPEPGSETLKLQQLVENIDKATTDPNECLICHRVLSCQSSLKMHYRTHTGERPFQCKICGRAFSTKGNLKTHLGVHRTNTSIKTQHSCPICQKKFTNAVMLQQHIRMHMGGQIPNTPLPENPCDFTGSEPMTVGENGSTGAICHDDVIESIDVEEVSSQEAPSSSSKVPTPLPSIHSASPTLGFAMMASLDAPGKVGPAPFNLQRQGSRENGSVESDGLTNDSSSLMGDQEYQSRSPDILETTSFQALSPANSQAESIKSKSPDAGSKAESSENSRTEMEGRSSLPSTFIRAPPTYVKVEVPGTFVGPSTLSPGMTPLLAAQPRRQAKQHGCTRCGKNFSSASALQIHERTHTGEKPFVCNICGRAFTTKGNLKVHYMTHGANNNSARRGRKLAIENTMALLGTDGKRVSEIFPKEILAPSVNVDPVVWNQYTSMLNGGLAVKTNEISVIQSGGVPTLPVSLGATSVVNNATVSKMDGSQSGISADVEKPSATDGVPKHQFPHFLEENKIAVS
Technique: universal PBM
Molecule type: double-stranded DNA, one strand shown
Matrix: in vitro
Concentration: 600 nM
Notes: 8-mer, flanks averaged, mean of replicates
Reading: higher = stronger binding
| Strand | E-score |
| --- | --- |
| GGGGGCCA | -0.358 |
| AGTTGTTG | -0.0306 |
| TCCCGACA | 0.0608 |
| ATTTATTA | 0.444 |
| GCTATAAA | 0.292 |
| CGCGAATC | -0.113 |
| ACGCCTAA | 0.0131 |
| AGCGCCTC | -0.204 |
